Measured values collected from several papers.
Each numbered part is a random draw from the data of one study; scales do not carry over between parts.
Chain of UniProt P62837 (whole entry, looked up): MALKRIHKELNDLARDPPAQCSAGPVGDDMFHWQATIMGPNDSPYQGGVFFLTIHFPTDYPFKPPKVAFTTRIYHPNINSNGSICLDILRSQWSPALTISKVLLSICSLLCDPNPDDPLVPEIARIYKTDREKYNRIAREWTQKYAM

Study 1
Target: Prothrombin, mature alpha-thrombin (F2, Homo sapiens, UniProt P00734)
Technique: aptamer microarray, sandwich
Form: DNA with 2'F-ANA
Sample: in vitro
Concentration: 200 nM
Setting: whole 15-mer aptamer, many near background
With: Cy3 exosite-II aptamer, 400 nM
Reading: higher = stronger binding
Measurement: mean fluorescence intensity
Strand: GGTTGGTGTGGTTGG
Modification = 2'F-ANA at 1 3 5 6 7 9 10 12 13 15; value = 49.3 a.u.
Modification = 2'F-ANA at 1 2 4 5 6 7 8 10 11 13 15; value = 55.5 a.u.
Modification = 2'F-ANA at 7 10 12 13; value = 245 a.u.
Modification = 2'F-ANA at 2 3 5 8 11 12 13 15; value = 151 a.u.
Modification = 2'F-ANA at 2 3 5 7 8 9 12 15; value = 254 a.u.
Modification = 2'F-ANA at 2 3 4 8 10 11 12 15; value = 266 a.u.
Modification = 2'F-ANA at 1 3 5 10 11 13 14; value = 48 a.u.
Modification = 2'F-ANA at 5 9 10 12; value = 54.8 a.u.

Study 2
Target: Cyclic AMP-dependent transcription factor ATF-1, full length (ATF1, Homo sapiens, UniProt P18846, residues 1-271)
Technique: protein-binding microarray
Form: hairpin DNA
Sample: in vitro
Concentration: not given
Setting: whole hairpin DNA, median over replicate spots
Baseline: not given
Reading: higher = stronger binding
Measurement: median fluorescence
Target sequence (chain): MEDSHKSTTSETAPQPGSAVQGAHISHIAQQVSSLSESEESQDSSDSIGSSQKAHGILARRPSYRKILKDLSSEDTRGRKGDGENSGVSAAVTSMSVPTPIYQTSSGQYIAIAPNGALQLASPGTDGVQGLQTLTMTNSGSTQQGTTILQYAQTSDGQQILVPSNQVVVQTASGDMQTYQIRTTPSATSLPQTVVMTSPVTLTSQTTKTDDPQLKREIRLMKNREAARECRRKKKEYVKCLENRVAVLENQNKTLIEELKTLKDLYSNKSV
Strand = GAGGCCGGCGGACGTCAGCCTCCTGGCTGACGTCCGCCGGCCTCACACTC; value = 5410 a.u.
Strand = GAGGCCGGCTGACCGCAGCCTCCTGGCTGCGGTCAGCCGGCCTCACACTC (5mC at 30); value = 3360 a.u.
Strand = GAGGCCGGCTGACGTCAGCCTCCTGGCTGACGTCAGCCGGCCTCACACTC (5mC at 38); value = 10200 a.u.
Strand = GAGGCCGACGACGTCTTGCCTCCTGGCAAGACGTCGTCGGCCTCACACTC (5mC at 9 15 35); value = 3500 a.u.
Strand = GAGGCCCGATGACGTCAGCCTCCTGGCTGACGTCATCGGGCCTCACACTC (5mC at 7); value = 16700 a.u.
Strand = GAGGCCGGCCGACGTCAGCCTCCTGGCTGACGTCGGCCGGCCTCACACTC (5mC at 10 34); value = 5430 a.u.
Strand = GAGGCCGGATGCCGTCAGCCTCCTGGCTGACGGCATCCGGCCTCACACTC (5mC at 12); value = 3740 a.u.
Strand = GAGGCCGGATGACCGCAGCCTCCTGGCTGCGGTCATCCGGCCTCACACTC (5mC at 14 30); value = 3500 a.u.

Single results of other studies
Molecule = KIF5B (Homo sapiens, UniProt P33176); target or system = KLC1 (Homo sapiens, UniProt Q07866); assay = cross-linking MS; test system = cell fractions; setting = with: DSSO; measurement = cross-linked residues; value = K829 to K29
Molecule = NLSELTPYILCSICKGYLIDATTITECLHTFCKSCIVRHFYYSNRCPKCNIVVHQTQPLY (PCGF6 RING domain (UniProt Q9BYE7)); target or system = UBE2D2 UBC core domain (UniProt P62837); assay = yeast two-hybrid; test system = yeast; setting = mostly zero background; scale = baseline: not given, higher = stronger interaction; measurement = lacZ reporter activity; value = 0
Molecule = UTP15 (Homo sapiens, UniProt Q8TED0); target or system = UTP18 (Homo sapiens, UniProt Q9Y5J1); assay = cross-linking MS; test system = cell fractions; setting = with: DMTMM; measurement = cross-linked residues; value = D349 to K287
Molecule = HSP90AB1 (Homo sapiens, UniProt P08238); target or system = MYH9 (Homo sapiens, UniProt P35579); assay = cross-linking MS; setting = hits only; measurement = interaction screen; value = cross-linked

For quick reference, copied from above (study 1):
Modification = 2'F-ANA at 2 3 4 8 10 11 12 15; value = 266 a.u.
